# Results gathered from unrelated publications.
# Protocols differ between the studies behind these lines.
# B1: FAL1 (Saccharomyces cerevisiae, UniProt Q12099); sequence looked up; chain MSFDREEDQKLKFKTSKKLKVSSTFESMNLKDDLLRGIYSYGFEAPSSIQSRAITQIISGKDVIAQAQSGTGKTATFTIGLLQAIDLRKKDLQALILSPTRELASQIGQVVKNLGDYMNVNAFAITGGKTLKDDLKKMQKHGCQAVSGTPGRVLDMIKKQMLQTRNVQMLVLDEADELLSETLGFKQQIYDIFAKLPKNCQVVVVSATMNKDILEVTRKFMNDPVKILVKRDEISLEGIKQYVVNVDKEEWKFDTLCDIYDSLTITQCVIFCNTKKKVDWLSQRLIQSNFAVVSMHGDMKQEERDKVMNDFRTGHSRVLISTDVWARGIDVQQVSLVINYDLPEIIENYIHRIGRSGRFGRKGVAINFITKADLAKLREIEKFYSIKINPMPANFAELS
# B2: DIS3 (Saccharomyces cerevisiae, UniProt Q08162); sequence looked up; chain MSVPAIAPRRKRLADGLSVTQKVFVRSRNGGATKIVREHYLRSDIPCLSRSCTKCPQIVVPDAQNELPKFILSDSPLELSAPIGKHYVVLDTNVVLQAIDLLENPNCFFDVIVPQIVLDEVRNKSYPVYTRLRTLCRDSDDHKRFIVFHNEFSEHTFVERLPNETINDRNDRAIRKTCQWYSEHLKPYDINVVLVTNDRLNREAATKEVESNIITKSLVQYIELLPNADDIRDSIPQMDSFDKDLERDTFSDFTFPEYYSTARVMGGLKNGVLYQGNIQISEYNFLEGSVSLPRFSKPVLIVGQKNLNRAFNGDQVIVELLPQSEWKAPSSIVLDSEHFDVNDNPDIEAGDDDDNNESSSNTTVISDKQRRLLAKDAMIAQRSKKIQPTAKVVYIQRRSWRQYVGQLAPSSVDPQSSSTQNVFVILMDKCLPKVRIRTRRAAELLDKRIVISIDSWPTTHKYPLGHFVRDLGTIESAQAETEALLLEHDVEYRPFSKKVLECLPAEGHDWKAPTKLDDPEAVSKDPLLTKRKDLRDKLICSIDPPGCVDIDDALHAKKLPNGNWEVGVHIADVTHFVKPGTALDAEGAARGTSVYLVDKRIDMLPMLLGTDLCSLKPYVDRFAFSVIWELDDSANIVNVNFMKSVIRSREAFSYEQAQLRIDDKTQNDELTMGMRALLKLSVKLKQKRLEAGALNLASPEVKVHMDSETSDPNEVEIKKLLATNSLVEEFMLLANISVARKIYDAFPQTAMLRRHAAPPSTNFEILNEMLNTRKNMSISLESSKALADSLDRCVDPEDPYFNTLVRIMSTRCMMAAQYFYSGAYSYPDFRHYGLAVDIYTHFTSPIRRYCDVVAHRQLAGAIGYEPLSLTHRDKNKMDMICRNINRKHRNAQFAGRASIEYYVGQVMRNNESTETGYVIKVFNNGIVVLVPKFGVEGLIRLDNLTEDPNSAAFDEVEYKLTFVPTNSDKPRDVYVFDKVEVQVRSVMDPITSKRKAELLLK
# B3: Nup98 732-880 (Mus musculus, UniProt Q6PFD9); sequence looked up; chain AGIVLTKVGYYTIPSMDDLAKITNEKGECIVSDFTIGRKGYGSIYFEGDVNLTNLNLDDIVHIRRKEVIVYVDDNQKPPVGEGLNRKAEVTLDGVWPTDKTSRCLIKSPDRLADINYEGRLEAVSRKQGAQFKEYRPETGSWVFKVSHF
# B4: RRP6 128-685 (Saccharomyces cerevisiae, UniProt Q12149); sequence looked up; chain RVEKPQLKFKSPIDNSESHPFIPLLKEKPNALKPLSESLRLVDDDENNPSHYPHPYEYEIDHQEYSPEILQIREEIPSKSWDDSVPIWVDTSTELESMLEDLKNTKEIAVDLEHHDYRSYYGIVCLMQISTRERDYLVDTLKLRENLHILNEVFTNPSIVKVFHGAFMDIIWLQRDLGLYVVGLFDTYHASKAIGLPRHSLAYLLENFANFKTSKKYQLADWRIRPLSKPMTAYARADTHFLLNIYDQLRNKLIESNKLAGVLYESRNVAKRRFEYSKYRPLTPSSEVYSPIEKESPWKILMYQYNIPPEREVLVRELYQWRDLIARRDDESPRFVMPNQLLAALVAYTPTDVIGVVSLTNGVTEHVRQNAKLLANLIRDALRNIKNTNEEATPIPSSETKADGILLETISVPQIRDVMERFSVLCNSNISKSRAKPVTNSSILLGKILPREEHDIAYSKDGLPNKVKTEDIRIRAQNFKSALANLEDIIFEIEKPLVVPVKLEEIKTVDPASAPNHSPEIDNLDDLVVLKKKNIQKKQPAKEKGVTEKDAVDYSKIP
# B5: RAD51 (Homo sapiens, UniProt Q06609); sequence looked up; chain MAMQMQLEANADTSVEEESFGPQPISRLEQCGINANDVKKLEEAGFHTVEAVAYAPKKELINIKGISEAKADKILAEAAKLVPMGFTTATEFHQRRSEIIQITTGSKELDKLLQGGIETGSITEMFGEFRTGKTQICHTLAVTCQLPIDRGGGEGKAMYIDTEGTFRPERLLAVAERYGLSGSDVLDNVAYARAFNTDHQTQLLYQASAMMVESRYALLIVDSATALYRTDYSGRGELSARQMHLARFLRMLLRLADEFGVAVVITNQVVAQVDGAAMFAADPKKPIGGNIIAHASTTRLYLRKGRGETRICKIYDSPCLPEAEAMFAINADGVGDAKD
# B6: UBI4/POL30 Ub–PCNA fusion K29R/K48R/K63R/G76V/K127R/K164R (Saccharomyces cerevisiae); chain MQIFVKTLTGKTITLEVESSDTIDNVKSRIQDKEGIPPDQQRLIFAGRQLEDGRTLSDYNIQRESTLHLVLRLRGVMLEAKFEEASLFKRIIDGFKDCVQLVNFQCKEDGIIAQAVDDSRVLLVSLEIGVEAFQEYRCDHPVTLGMDLTSLSKILRCGNNTDTLTLIADNTPDSIILLFEDTKKDRIAEYSLKLMDIDADFLRIEELQYDSTLSLPSSEFSKIVRDLSQLSDSINIMITRETIKFVADGDIGSGSVIIKPFVDMEHPETSIKLEMDQPVDLTFGAKYLLDIIKGSSLSDRVGIRLSSEAPALFQFDLKSGFLQFFLAPKFNDEE
# Chain of UniProt Q61315 (whole entry, looked up): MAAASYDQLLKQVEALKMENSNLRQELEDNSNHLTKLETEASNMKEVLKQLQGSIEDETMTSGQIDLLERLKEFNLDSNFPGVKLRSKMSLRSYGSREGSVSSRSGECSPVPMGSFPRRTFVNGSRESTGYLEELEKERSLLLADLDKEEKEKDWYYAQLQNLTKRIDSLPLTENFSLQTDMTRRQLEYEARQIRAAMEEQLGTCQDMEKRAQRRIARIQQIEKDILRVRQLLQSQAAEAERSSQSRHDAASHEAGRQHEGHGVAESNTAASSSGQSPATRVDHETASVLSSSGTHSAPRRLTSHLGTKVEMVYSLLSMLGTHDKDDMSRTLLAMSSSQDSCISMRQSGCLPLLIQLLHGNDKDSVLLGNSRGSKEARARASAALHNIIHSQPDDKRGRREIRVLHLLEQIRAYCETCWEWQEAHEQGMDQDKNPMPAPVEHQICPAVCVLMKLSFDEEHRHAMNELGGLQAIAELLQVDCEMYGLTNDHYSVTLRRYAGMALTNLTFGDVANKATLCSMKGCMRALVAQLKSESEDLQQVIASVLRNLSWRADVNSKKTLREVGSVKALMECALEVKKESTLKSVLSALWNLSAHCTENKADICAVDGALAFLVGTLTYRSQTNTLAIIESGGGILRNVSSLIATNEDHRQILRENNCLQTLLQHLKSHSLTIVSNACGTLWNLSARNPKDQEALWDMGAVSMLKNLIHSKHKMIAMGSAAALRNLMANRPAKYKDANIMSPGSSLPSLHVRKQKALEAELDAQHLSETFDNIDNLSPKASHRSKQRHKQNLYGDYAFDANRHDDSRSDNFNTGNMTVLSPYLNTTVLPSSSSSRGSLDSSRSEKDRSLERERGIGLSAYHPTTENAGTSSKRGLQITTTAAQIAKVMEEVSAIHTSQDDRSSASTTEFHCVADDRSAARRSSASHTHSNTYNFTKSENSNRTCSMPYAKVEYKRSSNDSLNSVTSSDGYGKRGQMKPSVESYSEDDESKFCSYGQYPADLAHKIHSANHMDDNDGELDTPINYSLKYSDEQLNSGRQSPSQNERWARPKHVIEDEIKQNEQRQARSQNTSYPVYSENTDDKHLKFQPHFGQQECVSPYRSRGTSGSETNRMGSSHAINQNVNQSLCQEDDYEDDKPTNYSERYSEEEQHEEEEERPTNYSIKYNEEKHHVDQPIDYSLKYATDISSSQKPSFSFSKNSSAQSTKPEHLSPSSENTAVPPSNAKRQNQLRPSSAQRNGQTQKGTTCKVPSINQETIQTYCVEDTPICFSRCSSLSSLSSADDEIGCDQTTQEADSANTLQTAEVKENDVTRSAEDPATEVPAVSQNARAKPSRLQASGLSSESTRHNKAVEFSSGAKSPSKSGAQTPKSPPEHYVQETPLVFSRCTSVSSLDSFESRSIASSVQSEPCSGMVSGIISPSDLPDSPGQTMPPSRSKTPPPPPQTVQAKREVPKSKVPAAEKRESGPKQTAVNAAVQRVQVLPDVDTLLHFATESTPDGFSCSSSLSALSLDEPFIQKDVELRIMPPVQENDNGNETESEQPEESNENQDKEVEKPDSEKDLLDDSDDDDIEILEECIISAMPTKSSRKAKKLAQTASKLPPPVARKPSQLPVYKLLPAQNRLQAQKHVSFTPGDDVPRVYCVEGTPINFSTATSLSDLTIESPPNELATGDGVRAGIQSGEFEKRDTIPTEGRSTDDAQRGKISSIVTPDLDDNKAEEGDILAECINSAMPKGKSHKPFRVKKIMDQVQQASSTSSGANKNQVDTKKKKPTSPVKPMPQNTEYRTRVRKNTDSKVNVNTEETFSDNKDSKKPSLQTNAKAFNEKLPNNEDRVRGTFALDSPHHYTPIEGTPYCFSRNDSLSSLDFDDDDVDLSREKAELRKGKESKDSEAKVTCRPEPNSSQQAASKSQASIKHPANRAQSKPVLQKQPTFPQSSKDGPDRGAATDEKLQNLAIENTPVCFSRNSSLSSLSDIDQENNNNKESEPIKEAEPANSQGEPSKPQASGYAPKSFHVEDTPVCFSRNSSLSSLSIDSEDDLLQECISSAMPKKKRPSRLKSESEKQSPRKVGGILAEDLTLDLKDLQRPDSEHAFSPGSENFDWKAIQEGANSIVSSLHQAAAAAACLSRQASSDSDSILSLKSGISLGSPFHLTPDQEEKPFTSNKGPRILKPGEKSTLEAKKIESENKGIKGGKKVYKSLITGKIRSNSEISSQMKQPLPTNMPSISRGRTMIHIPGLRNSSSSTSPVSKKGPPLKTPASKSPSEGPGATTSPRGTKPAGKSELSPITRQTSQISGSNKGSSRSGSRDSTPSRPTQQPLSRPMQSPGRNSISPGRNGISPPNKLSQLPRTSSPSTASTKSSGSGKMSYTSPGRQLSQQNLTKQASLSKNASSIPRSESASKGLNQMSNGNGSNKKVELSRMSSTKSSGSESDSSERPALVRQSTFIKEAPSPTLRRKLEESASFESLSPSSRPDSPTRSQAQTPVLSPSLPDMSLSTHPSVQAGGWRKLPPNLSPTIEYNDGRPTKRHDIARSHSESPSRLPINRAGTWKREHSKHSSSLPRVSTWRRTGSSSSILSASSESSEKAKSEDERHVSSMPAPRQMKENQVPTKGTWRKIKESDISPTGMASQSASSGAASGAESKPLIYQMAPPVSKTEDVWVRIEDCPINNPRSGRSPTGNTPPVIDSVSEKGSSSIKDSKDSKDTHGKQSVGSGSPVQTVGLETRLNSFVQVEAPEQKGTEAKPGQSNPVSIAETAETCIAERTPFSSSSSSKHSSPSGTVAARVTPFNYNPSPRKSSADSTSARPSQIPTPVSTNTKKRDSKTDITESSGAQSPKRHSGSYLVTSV
# Chain of UniProt Q06132 (whole entry, looked up): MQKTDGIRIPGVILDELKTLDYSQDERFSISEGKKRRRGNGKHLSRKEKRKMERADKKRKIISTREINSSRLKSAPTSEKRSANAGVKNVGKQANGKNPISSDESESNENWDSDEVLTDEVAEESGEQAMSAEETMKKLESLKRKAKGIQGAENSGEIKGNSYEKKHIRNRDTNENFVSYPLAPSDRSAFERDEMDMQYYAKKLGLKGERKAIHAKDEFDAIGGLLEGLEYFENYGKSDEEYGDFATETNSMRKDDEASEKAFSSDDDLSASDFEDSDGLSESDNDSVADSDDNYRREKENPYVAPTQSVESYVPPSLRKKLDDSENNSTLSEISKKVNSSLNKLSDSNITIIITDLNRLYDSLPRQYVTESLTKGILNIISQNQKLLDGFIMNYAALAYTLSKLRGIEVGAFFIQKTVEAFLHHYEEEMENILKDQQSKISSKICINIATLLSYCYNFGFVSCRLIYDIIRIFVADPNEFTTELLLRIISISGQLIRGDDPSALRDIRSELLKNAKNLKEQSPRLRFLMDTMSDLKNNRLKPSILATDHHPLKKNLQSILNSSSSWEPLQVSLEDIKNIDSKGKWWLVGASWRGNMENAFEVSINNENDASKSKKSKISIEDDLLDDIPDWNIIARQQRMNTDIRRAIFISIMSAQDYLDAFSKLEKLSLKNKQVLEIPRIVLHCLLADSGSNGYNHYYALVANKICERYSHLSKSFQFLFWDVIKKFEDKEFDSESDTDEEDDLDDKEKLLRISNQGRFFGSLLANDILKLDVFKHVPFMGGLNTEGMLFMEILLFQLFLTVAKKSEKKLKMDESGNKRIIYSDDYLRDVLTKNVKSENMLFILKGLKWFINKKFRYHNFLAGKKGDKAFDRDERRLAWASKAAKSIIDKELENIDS
# Chain of UniProt P33175 (whole entry, looked up): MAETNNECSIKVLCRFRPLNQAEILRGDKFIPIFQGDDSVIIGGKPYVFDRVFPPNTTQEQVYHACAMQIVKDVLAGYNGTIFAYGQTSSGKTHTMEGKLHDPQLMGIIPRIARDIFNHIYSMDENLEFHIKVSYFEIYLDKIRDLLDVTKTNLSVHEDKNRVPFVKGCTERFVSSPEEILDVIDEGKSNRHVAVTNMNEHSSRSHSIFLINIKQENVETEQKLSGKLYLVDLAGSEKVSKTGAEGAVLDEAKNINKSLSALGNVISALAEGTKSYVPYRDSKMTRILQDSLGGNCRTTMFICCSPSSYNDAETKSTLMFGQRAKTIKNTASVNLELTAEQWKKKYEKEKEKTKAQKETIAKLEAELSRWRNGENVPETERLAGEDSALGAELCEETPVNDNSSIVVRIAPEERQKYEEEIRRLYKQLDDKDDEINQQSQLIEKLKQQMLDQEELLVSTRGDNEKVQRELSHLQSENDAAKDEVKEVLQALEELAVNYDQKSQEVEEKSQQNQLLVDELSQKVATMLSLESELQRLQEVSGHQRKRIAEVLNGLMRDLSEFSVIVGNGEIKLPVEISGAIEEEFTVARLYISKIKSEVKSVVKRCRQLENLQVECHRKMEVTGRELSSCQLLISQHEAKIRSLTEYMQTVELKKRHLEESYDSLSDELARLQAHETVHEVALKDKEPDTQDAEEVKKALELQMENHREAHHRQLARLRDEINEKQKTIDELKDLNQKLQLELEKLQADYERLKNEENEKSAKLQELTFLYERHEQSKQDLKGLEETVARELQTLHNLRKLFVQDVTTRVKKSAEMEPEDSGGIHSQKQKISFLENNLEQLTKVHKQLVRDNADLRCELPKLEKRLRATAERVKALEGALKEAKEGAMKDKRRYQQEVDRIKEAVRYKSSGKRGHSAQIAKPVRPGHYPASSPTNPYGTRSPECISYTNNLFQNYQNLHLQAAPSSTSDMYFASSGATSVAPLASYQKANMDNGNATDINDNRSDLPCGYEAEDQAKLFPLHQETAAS
# Chain of UniProt P46948 (whole entry, looked up): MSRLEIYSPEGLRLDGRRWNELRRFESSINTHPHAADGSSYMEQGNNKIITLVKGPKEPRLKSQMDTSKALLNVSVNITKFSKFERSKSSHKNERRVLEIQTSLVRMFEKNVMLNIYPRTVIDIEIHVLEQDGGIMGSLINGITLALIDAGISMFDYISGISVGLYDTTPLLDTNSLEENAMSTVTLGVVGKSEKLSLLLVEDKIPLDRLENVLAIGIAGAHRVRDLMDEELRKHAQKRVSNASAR
Molecule,partner,test,test system,setting,binding
B1 (FAL1),"SGD1 (Saccharomyces cerevisiae, UniProt Q06132)",pull-down,,,binds
B2 (DIS3),RRP45/SKI6/RRP43/RRP46/RRP42/MTR3/RRP4/RRP40/CSL4 Exo9 core 1-305 (Saccharomyces cerevisiae),"reconstitution, SDS-PAGE",,,binds
"ANK1 (human, UniProt P16157)","SPTB (Homo sapiens, UniProt P11277)",far-Western,,,binds
B3 (Nup98 732-880),"NUP82 1-452 C396S (Saccharomyces cerevisiae, UniProt P40368)",SEC,,,binds
"KIF5A full-length homodimer (Mus musculus, UniProt P33175)","APC, SNAP-tag label (UniProt Q61315)",TIRF-M motility reconstitution,,,binds
B4 (RRP6 128-685),"Exo9 core (Saccharomyces cerevisiae, UniProt P46948)",reconstitution and purification,,,binds
B5 (RAD51),BRCA1/BARD1 F133A/D135A/A136E (Homo sapiens),pull-down,,"5 µM, 30 min, 4 °C, KCl 150 mM, with: Flag-BRCA1-BARD1 0.5 µM",binds
"GRRYVDMTSIFDAMLN (POL1 1453-1468 F1465A (Saccharomyces cerevisiae, UniProt P13382); sequence looked up)","PRI1/PRI2 PRI1 1-409, PRI2 49-513 del382-384 (Saccharomyces cerevisiae)",pull-down,peptide,"2 h, pH 7.0, 4 °C",binds
B6,"MGS1 (Saccharomyces cerevisiae, UniProt P40151)",pull-down,,,binds
